Assay results collected from several papers.
Numbered parts are unrelated; each lists some results of a single study. Changes are numbered by the printed parent chain.

Study 1
Target: ABI1, truncated, D143A, DHFR fusion (Arabidopsis thaliana)
Method: DHFR PCA, deep sequencing
Matrix: yeast
Setting: methotrexate growth selection, single substitutions
With: (+)-ABA 0.032 µM
Relative to: wild-type fitted maximum
Direction: higher = stronger binding
Starting sequence: PYL1, truncated, DHFR fusion (Arabidopsis thaliana); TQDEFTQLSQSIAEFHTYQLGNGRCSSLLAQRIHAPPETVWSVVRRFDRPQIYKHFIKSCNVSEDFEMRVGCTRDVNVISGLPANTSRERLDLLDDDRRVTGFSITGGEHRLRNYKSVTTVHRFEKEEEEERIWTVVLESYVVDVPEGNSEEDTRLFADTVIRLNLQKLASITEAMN; partner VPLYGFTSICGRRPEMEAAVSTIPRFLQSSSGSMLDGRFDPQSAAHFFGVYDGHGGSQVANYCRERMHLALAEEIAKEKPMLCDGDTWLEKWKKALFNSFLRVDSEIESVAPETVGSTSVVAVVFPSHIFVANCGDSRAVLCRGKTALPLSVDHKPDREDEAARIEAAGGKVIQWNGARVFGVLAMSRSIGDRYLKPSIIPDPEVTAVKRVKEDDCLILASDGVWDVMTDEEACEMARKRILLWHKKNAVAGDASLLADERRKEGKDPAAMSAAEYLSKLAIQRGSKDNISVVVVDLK
Under “relative binding score”, `D159G` is recorded as 1.32%.
`E139Y`: “relative binding score” -0.757%.
`M68N` — result for “relative binding score”: 2.31%.
`Y53L`: “relative binding score” -1.66%.
For `S63P`, “relative binding score” read 44.2%.
For `S11K`, “relative binding score” read 4.15%.
`Q2W`: “relative binding score” 48.4%.
`T135G` — result for “relative binding score”: -2.76%.
`P83N` — result for “relative binding score”: 17.4%.

Study 2
Target: Interferon regulatory factor 3, full length, phosphomimetic (IRF3, Homo sapiens, UniProt Q14653, residues 1-427, S386D/S396D/S398D/S402D/T404D/S405D)
Chain of UniProt Q14653 (whole entry, unmodified, looked up): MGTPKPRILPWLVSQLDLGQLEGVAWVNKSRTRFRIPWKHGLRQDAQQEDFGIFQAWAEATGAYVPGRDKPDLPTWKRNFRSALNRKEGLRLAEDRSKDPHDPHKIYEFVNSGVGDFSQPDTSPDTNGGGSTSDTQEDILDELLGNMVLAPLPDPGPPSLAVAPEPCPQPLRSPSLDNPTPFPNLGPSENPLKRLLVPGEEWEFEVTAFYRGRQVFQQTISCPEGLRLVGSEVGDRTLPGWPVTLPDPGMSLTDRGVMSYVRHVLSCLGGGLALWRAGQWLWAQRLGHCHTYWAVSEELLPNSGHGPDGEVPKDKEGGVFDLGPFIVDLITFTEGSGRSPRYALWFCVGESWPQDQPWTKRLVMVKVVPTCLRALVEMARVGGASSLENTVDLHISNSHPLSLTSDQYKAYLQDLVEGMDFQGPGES
Method: protein-binding microarray
Molecule type: double-stranded DNA, one strand shown
Matrix: in vitro
Tested at: 2540 nM top
Setting: 60-bp whole probe
With: salmon DNA 0.4 mg/ml
Relative to: random background probes
Direction: higher = stronger binding
All sequences stand within: GCCTAGCAC … GTCTTGATTCGCTTGACGCTGCTG
`GACGGTATCCGGTATCGGGACGTGCTA`: “fitted relative affinity” 2.28 z-score.
`GAGGGACTGGACTTTCGGGACGTGCTA`: “fitted relative affinity” -0.359 z-score.
`TTAGATGTCAGTCTCGATTAGTGCTAG` — result for “fitted relative affinity”: 0.675 z-score.
For `TTAGGTTGCCTTCTCCTTTAGTGCTAG`, “fitted relative affinity” read 6.26 z-score.
Under “fitted relative affinity”, `TTAGGACTGGACTTTCGGTTCGTGCTA` is recorded as 2.27 z-score.
`GACGGTATCGGGTATCGGGATGTGCTA` — result for “fitted relative affinity”: 1.88 z-score.
For `TCAGTTATCACTTCCAAACTGTGCTAG`, “fitted relative affinity” read 2.43 z-score.
For `AATGATTGGTTGAACATGAAGTGCTAG`, “fitted relative affinity” read -0.187 z-score.
For `GACGAATTGAGTCTCGAGACGTGCTAG`, “fitted relative affinity” read -0.17 z-score.

Study 3
Target: RNA binding protein fox-1 homolog 2, RRM domain, GST-SBP tag (RBFOX2, Homo sapiens, UniProt O43251-10, residues 100-194)
Method: RNA Bind-n-Seq
Molecule type: RNA
Matrix: in vitro
Tested at: 365 nM
Setting: natural RNA segment, single round, ends assumed
Relative to: no-protein control
Direction: higher = stronger binding
All sequences stand within: GGGAGUUCUACAGUCCGACGAUC … UGGAAUUCUCGGGUGCCAA
Target sequence (chain): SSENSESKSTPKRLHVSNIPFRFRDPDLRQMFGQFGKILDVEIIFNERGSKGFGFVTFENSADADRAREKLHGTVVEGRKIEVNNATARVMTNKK
`UAUAAGAGGUGCUCACAGAAAGAAUAAGGGAAACUUCCCUGAUACCUUAAUGCAAAAUCAAAAUUAUAAAAUAAAAUCAUUGACAUUGAUGGGUUUUUUUGCAUAUAAGC`: “RBNS enrichment (R)” 0.474.
For `GCCUCCCACUCCCACACUUCUUUGCCUAUAAAUCUUCCUAGCAGCAAUUUGAGCUACCUGAGGAGGAGGCAGGGCAGAAAGGGCGAGGGCCUGCCUCUGACCUGCCGUGU`, “RBNS enrichment (R)” read 0.82.
`UGCCACAGGAAAACAGUGGUAGCUUAGAGAGGGCUCAGAUCCCUGGGUGCCAGUUUUUUAAUCACUAUAGCCCUUGGGAAGGCUUGGGCUAUUUACUGGGCGGUAAAAGG`: “RBNS enrichment (R)” 0.328.
Under “RBNS enrichment (R)”, `GCUGGCAGCUUUGACAGAAACUCUUCCGUGGUCGGCCUUUCACCUCUUCACUUUCGCUUGGUCCCAGCAGGACCUGAUGGCCACGCGUGCCUUGGCCACAGGAAGCUGCC` is recorded as 0.704.
`AAGGAAACAAAGAGUGCUUUUGGGCAUCCAACAGUUAAUCACUUAUGUUUUUAGAGCAUGCAAUCUUAACUUUGUUAAACUAUUAUUAUUGAUCACAUUUUGAUUUUUUU`: “RBNS enrichment (R)” 4.75.
For `CCUCUGCAUCUGCUGAACUGAACAAACUAUCAGAGGAAAGGAAGUGGGACUGGCACUAUUUGAGGUUAAGACAAACUGCAUAUGUACUUCAAUUGCUUUGCACUUUUCCG`, “RBNS enrichment (R)” read 0.875.
Under “RBNS enrichment (R)”, `CGUUAUCUUUUAGCACUCAUAGAACAAACCAAGAUAUGGAAGAAGACAUAUUCAAAAGGUGGGCUUGUCUAAGGUUCCCACAGAAAUGUAAGUAUGAGCCUACUGUUUUG` is recorded as 0.475.
Under “RBNS enrichment (R)”, `UUCUUUCAGUUUGCUUUUGGUUUCCUGUAUAUUUGCUUACUGUGCUGUUCUAGUGGUUGUAGGGUAAAGACGAACUGGUGAAGCAGUCGUAGCGCCGACCGAAGGUGAUU` is recorded as 0.412.
`UUUACACUGUCUUUAAAAGGCCAAAUAAGGCUGGGCGCAGUGGCUCACACCUGUAAUCCCAACAUUUUGGGAGCCCAAGGCGGCCGGACCACCUGAGGUCGGGAGUUCAA`: “RBNS enrichment (R)” 0.324.

Study 4
Molecule: PhoQ, residues 284 288 289 292 302 303 TLMATV
Method: Sort-seq
Refers to: YFP reporter
Matrix: E. coli
Setting: PhoQ-PhoP variant library
With: 10 µM Mg2+
Relative to: high Mg2+ state
Direction: higher = stronger signaling
PhoP, residues 12 14 15 18 19 LFHKL (Escherichia coli, UniProt P23836) — fold induction: 0.774.
The fold induction was 2.72 (PhoP, residues 12 14 15 18 19 QQAYL (Escherichia coli, UniProt P23836)).
It gave 3.06 for fold induction (PhoP, residues 12 14 15 18 19 GMGLL (Escherichia coli, UniProt P23836)).

Repeated from above (study 2):
`GAGGGACTGGACTTTCGGGACGTGCTA`: “fitted relative affinity” -0.359 z-score.
For `GACGAATTGAGTCTCGAGACGTGCTAG`, “fitted relative affinity” read -0.17 z-score.
`GACGGTATCGGGTATCGGGATGTGCTA` — result for “fitted relative affinity”: 1.88 z-score.
